Measured values pooled from the literature.
A part holds a random share of what one study measured.
Sequence of UniProt Q07912 (whole entry, looked up): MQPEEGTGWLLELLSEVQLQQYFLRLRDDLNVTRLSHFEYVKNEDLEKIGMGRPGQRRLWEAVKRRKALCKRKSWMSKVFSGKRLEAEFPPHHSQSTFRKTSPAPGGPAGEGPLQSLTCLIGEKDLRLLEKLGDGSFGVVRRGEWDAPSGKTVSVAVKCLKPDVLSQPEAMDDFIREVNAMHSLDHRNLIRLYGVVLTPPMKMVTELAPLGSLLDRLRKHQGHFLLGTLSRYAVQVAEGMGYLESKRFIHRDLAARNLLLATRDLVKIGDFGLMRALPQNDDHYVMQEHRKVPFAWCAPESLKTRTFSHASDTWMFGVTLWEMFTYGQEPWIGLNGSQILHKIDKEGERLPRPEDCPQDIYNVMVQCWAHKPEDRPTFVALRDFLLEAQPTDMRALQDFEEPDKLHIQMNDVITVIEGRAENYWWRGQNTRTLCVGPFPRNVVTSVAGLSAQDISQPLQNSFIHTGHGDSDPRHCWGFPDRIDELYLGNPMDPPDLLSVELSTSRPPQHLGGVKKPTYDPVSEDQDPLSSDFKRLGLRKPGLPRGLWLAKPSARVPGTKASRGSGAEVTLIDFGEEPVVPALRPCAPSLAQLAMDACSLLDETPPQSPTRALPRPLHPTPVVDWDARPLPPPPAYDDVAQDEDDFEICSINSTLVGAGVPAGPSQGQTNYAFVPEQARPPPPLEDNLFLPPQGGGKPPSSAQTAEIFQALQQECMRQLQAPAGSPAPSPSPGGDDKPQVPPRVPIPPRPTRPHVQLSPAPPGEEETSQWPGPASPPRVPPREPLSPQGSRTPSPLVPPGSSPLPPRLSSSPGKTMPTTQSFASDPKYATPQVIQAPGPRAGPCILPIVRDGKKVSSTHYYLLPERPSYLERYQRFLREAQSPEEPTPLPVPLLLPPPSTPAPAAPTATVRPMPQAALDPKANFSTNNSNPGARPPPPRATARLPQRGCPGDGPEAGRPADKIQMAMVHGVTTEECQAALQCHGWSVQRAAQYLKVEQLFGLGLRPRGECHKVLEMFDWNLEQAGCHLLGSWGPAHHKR

Block 1 — technique: RNA Bind-n-Seq; molecule type: RNA; sample: in vitro; concentration: 20 nM; notes: 6-mer, flanks averaged, single round; together with: 150 mM KCl; reference: input library; reading: higher = stronger binding; measurement: 6-mer enrichment (R)
Target: TAR DNA-binding protein 43, full length, His tag (TARDBP, Homo sapiens, UniProt Q13148, residues 1-414)
ACCACA: 0.656
AGGAAC: 0.826
CGCAUG: 0.938
UACGUG: 0.911
UCGACU: 0.594
AUCACU: 0.558
UACUCA: 0.551
CAUACC: 0.585

Block 2 — technique: protein-binding microarray; molecule type: double-stranded DNA, one strand shown; sample: in vitro; concentration: 2200 nM top; notes: 60-bp whole probe; together with: salmon DNA 0.4 mg/ml; reference: random background probes; reading: higher = stronger binding; measurement: fitted relative affinity
Target: Interferon regulatory factor 7, full length, phosphomimetic (IRF7, Homo sapiens, UniProt Q92985, residues 1-503, S471D/S472D/S475D/S476D/S477D/S483D/S484D/S487D)
All sequences stand within: GCCTAGCAC … GTGCTAGGTCTTGATTCGCTTGACGCTGCTG
Residues (chain): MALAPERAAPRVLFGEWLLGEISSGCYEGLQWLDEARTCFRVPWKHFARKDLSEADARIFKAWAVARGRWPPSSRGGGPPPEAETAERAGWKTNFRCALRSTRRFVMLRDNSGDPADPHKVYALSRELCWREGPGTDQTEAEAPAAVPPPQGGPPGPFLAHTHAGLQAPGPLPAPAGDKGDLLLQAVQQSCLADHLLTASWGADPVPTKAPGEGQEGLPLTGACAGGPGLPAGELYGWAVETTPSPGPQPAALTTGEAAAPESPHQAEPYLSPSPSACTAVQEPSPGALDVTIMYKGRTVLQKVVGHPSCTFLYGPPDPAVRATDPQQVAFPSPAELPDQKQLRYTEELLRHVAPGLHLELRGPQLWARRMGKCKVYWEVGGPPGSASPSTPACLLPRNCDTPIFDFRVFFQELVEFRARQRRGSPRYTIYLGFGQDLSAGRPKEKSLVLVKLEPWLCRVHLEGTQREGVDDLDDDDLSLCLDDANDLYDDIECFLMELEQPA
GACGGACTAGGTATCGGGAC: -0.575 z-score
GTCGGTATCGGTCTCGGGAC: 0.691 z-score
ATTTTTCTAATTTACTTTGG: 1.7 z-score
GACAAACTGAGTATCGAGAC: -0.253 z-score
GACGGTACCGGTATCGGGAC: -0.033 z-score
GACGGACTGCGTTTCCTGAC: 0.44 z-score
GACGGACTGCTAATCCTGAC: 0.0909 z-score
CAAGTTACCCACCTCAGGTA: 0.723 z-score

Other studies, line by line
PhoQ, residues 284 288 289 292 302 303 SSCCRF  fold induction (PhoP, residues 12 14 15 18 19 NHTVL (Escherichia coli, UniProt P23836); Sort-seq, measured: YFP reporter; E. coli; PhoQ-PhoP variant library, together with: 10 µM Mg2+; reference: high Mg2+ state, higher = stronger signaling): 20.9
CCN(CC)CCNC(=O)c1c(C)[nH]c(/C=C2\C(=O)Nc3ccc(F)cc32)c1C  remaining activity (TNK2 (Homo sapiens, UniProt Q07912); enzyme activity, inhibitor; 0.5 µM; reference: control): 64.1%

For quick reference, copied from above (block 2):
GACGGACTGCTAATCCTGAC: 0.0909 z-score
CAAGTTACCCACCTCAGGTA: 0.723 z-score
